Measurements pooled from the literature.
Each line is one published result; not all experiments were run side by side. ± marks the error that the study gave.
Cell line: RAW264.7
Method: MTT

With `CC(=O)O[C@@H]1CC[C@@]2(C)C(CC[C@]3(C)C2C(=O)C=C2C4[C@@H](C)[C@H](C)CC[C@]4(C)CC[C@]23C)[C@@]1(C)c1nnc(SCC(=O)Oc2cc(C)ccc2C(C)C)o1` (stereo partly drawn) the viability was 104% (cell growth or viability; 25 µM, 24 h).
`Fc1ccc(NCc2cn(-c3ccccc3)nc2-c2ccc(OCc3ccccc3)cc2)cc1` has a viability of 73 ± 1.18% (20 µM, 24 h, added: LPS).
`O=C1CCNCN1Cc1ccccc1` gave a viability of 99.5% (cell growth or viability; 200 µM, 24 h).
`COc1ccc2c(c1CC=C(C)C)O[C@H]1c3cc(CC=C(C)C)c(O)cc3OC[C@@H]21` gave a viability of 3.1 ± 0.9% (concentration not given).
`NS(=O)(=O)c1ccc(-n2cc(CNc3ccccc3)c(-c3ccc(OCc4ccccc4)cc3)n2)cc1` gave a viability of 59 ± 2.84% (20 µM, 24 h, added: LPS).
`COc1ccc2c(oc3c4ccc(O)cc4oc(=O)c23)c1CC=C(C)C` has a viability of 98.6 ± 1.6% (concentration not given).
For `COc1ccc(OC)c(/C=N\NC(=O)[C@]2(C)C3CC[C@]4(C)C(C(=O)C=C5C6[C@@H](C)[C@H](C)CC[C@]6(C)CC[C@]54C)[C@@]3(C)CC[C@H]2OC(C)=O)c1` (stereo partly drawn), the viability was 85% (cell growth or viability; 25 µM, 24 h).
`NS(=O)(=O)c1ccc(-n2cc(CNc3ccccc3Cl)c(-c3ccc(OCc4ccccc4)cc3)n2)cc1` has a viability of greater than 90% (20 µM, 24 h, 10% FBS, added: LPS).
With `CC(C)=CCc1cc2c(cc1O)OC[C@H]1c3ccc(O)c(CC=C(C)C)c3O[C@@H]21` the viability was 3.3 ± 0.2% (concentration not given).
`COc1cc(/C=N\NC(=O)[C@]2(C)C3CC[C@]4(C)C(C(=O)C=C5C6[C@@H](C)[C@H](C)CC[C@]6(C)CC[C@]54C)[C@@]3(C)CC[C@H]2OC(C)=O)cc(OC)c1OC` (stereo partly drawn) has a viability of 95% (cell growth or viability; 25 µM, 24 h).
The viability of `COc1ccc(-c2coc3c(CC=C(C)C)c(O)c(CC=C(C)C)c(O)c3c2=O)cc1O` is reported as 97.2% (cell growth or viability; 6.25 µg/mL, 24 h).
For `Clc1ccccc1NCc1cn(-c2ccccc2)nc1-c1ccc(OCc2ccccc2)cc1`, the viability was 71 ± 2.35% (20 µM, 24 h, added: LPS).
With `COc1cc2c(cc1O)[C@]1(O)C(=O)c3c(O)cc4c(c3O[C@@H]1CO2)C=CC(C)(C)O4` the viability was 109% (cell growth or viability; 6.25 µg/mL, 24 h).
For `Clc1ccc(NCc2cn(-c3ccccc3)nc2-c2ccc(OCc3ccccc3)cc2)cc1`, the viability was 84 ± 2.41% (20 µM, 24 h, added: LPS).
`Cc1ccc(C(C)C)c(O)c1` gave a viability of 98% (cell growth or viability; 25 µM, 24 h).
With `CC(C)=CCc1cc(-c2coc3cc(O)c(CC=C(C)C)c(O)c3c2=O)ccc1O` the viability was 124% (cell growth or viability; 6.25 µg/mL, 24 h).
`CC(=O)O[C@@H]1CC[C@@]2(C)C(CC[C@]3(C)C2C(=O)C=C2C4[C@@H](C)[C@H](C)CC[C@]4(C)CC[C@]23C)[C@@]1(C)C(=O)N/N=C\c1ccc2c(c1)OCO2` (stereo partly drawn) gave a viability of 98% (cell growth or viability; 25 µM, 24 h).
`COc1c2c(cc3c1[C@@H]1Oc4c(ccc(O)c4CC=C(C)C)[C@@H]1CO3)OC(C)(C)C=C2` gave a viability of 2.8 ± 0.1% (concentration not given).
`CC(=O)O[C@@H]1CC[C@@]2(C)C(CC[C@]3(C)C2C(=O)C=C2C4[C@@H](C)[C@H](C)CC[C@]4(C)CC[C@]23C)[C@@]1(C)C(=O)N/N=C1/C(=O)Nc2ccccc21` (stereo partly drawn) gave a viability of 99% (cell growth or viability; 25 µM, 24 h).
`CC(C)=CCc1cc(-c2coc3cc(O)c(CC=C(C)C)c(O)c3c2=O)ccc1O` has a viability of 3.8 ± 0.1% (concentration not given).
The viability of `C=CCc1ccc(OC(=O)CSc2nnc([C@]3(C)C4CC[C@]5(C)C(C(=O)C=C6C7[C@@H](C)[C@H](C)CC[C@]7(C)CC[C@]65C)[C@@]4(C)CC[C@H]3OC(C)=O)o2)c(OC)c1` (stereo partly drawn) is reported as 99% (cell growth or viability; 25 µM, 24 h).
The viability of `CC(C)=CCc1c(O)c(CC=C(C)C)c2occ(-c3ccc(O)c(O)c3)c(=O)c2c1O` is reported as 113% (cell growth or viability; 6.25 µg/mL, 24 h).
For `CC(=O)O[C@@H]1CC[C@@]2(C)C(CC[C@]3(C)C2C(=O)C=C2C4[C@@H](C)[C@H](C)CC[C@]4(C)CC[C@]23C)[C@@]1(C)C(=O)N/N=C\c1ccccc1` (stereo partly drawn), the viability was 92% (cell growth or viability; 25 µM, 24 h).
With `COc1c(CC=C(C)C)c(O)cc2c1-c1oc3c(CC=C(C)C)c(O)ccc3c1CO2` the viability was 99.4 ± 0.6% (concentration not given).

A few entries again:
The viability of `CC(C)=CCc1c(O)c(CC=C(C)C)c2occ(-c3ccc(O)c(O)c3)c(=O)c2c1O` is reported as 113% (cell growth or viability; 6.25 µg/mL, 24 h).
The viability of `C=CCc1ccc(OC(=O)CSc2nnc([C@]3(C)C4CC[C@]5(C)C(C(=O)C=C6C7[C@@H](C)[C@H](C)CC[C@]7(C)CC[C@]65C)[C@@]4(C)CC[C@H]3OC(C)=O)o2)c(OC)c1` (stereo partly drawn) is reported as 99% (cell growth or viability; 25 µM, 24 h).
